Results pooled from the literature.
Protocols differ between the studies behind these lines. Numbers after ± are the reported error.
HTR1B: 5-hydroxytryptamine receptor 1B (HTR1B, Homo sapiens, UniProt P28222)
SIRT3: NAD-dependent protein deacetylase sirtuin-3, mitochondrial (SIRT3, Homo sapiens, UniProt Q9NTG7)
AMY2: Pancreatic alpha-amylase (AMY2, Sus scrofa, UniProt P00690)
SRPK3: SRSF protein kinase 3 (SRPK3, Homo sapiens, UniProt Q9UPE1)
CXCR4: C-X-C chemokine receptor type 4 (CXCR4, Homo sapiens, UniProt P61073)
MDM4: Protein Mdm4 (MDM4, Homo sapiens, UniProt O15151)
SETDB1 triple Tudor domain: Histone-lysine N-methyltransferase SETDB1, triple Tudor domain (SETDB1, Homo sapiens, UniProt Q15047)
EHMT2: Histone-lysine N-methyltransferase EHMT2 (EHMT2, Homo sapiens, UniProt Q96KQ7)

Compound	target	assay	test system	setting	inhibition
CC(C)NC(=O)[C@H](CCc1ccccc1)NC(=O)[C@H](CC(=O)NCC(C)(C)C)NC(=O)CCc1ccccc1	trypsin	enzyme activity, inhibitor	–	100 µM	-4%
CCCCCCCCCCCCNC(=S)NCCCC[C@H](NC(=O)OCc1ccccc1)C(=O)N[C@@H](Cc1c[nH]c2ccccc12)C(=O)NC(C)C	NAD-dependent protein deacetylase sirtuin-1 (SIRT1, Homo sapiens, UniProt Q96EB6)	enzyme activity, inhibitor	–	10 µM	47%
O=C1c2sc(-c3ccc(N4CCC(F)C4)nc3F)nc2CCN1c1cccnc1 (centres unmarked)	Melanocortin receptor 3 (MC3R, Homo sapiens, UniProt P41968)	ligand displacement, radioligand	–	1 µM	-7%
CC1Cc2ccccc2N1C(=O)CN1CCN(Cc2ccccc2)CC1 (centres unmarked)	HTR1B	radioligand binding	–	concentration not given, together with: [3H]5-CT	6.6%
CCCCCCCCCCCCCC(=S)NCCCC[C@H](NC(=O)OCc1ccccc1)C(=O)Nc1ccccc1	SIRT3	enzyme activity, inhibitor	–	100 µM	< 5%
O=C(Nc1ccc(C(F)F)cc1)[C@H](CC1CCCCC1)Nc1nn2c(=O)ccnc2s1	Tyrosine-protein phosphatase non-receptor type 9 (PTPN9, Homo sapiens, UniProt P43378)	enzyme activity, inhibitor	–	10 µM	-4%
CC(C)Cn1c(SCC(=O)N2CCc3ccccc3C2)nc2cc(Cl)ccc2c1=O	HTR1B	ligand displacement, radioligand	–	10 µM	18%
COc1c(Br)c(O)c2c(c1Br)OC(c1ccccc1)CC2=O (centres unmarked)	AMY2	enzyme activity, inhibitor	–	50 µM, 30 min	17.6%
C=CCNC(=O)[C@H](CCc1ccccc1)NC(=O)[C@H](CC(=O)NCC(C)(C)C)NC(=O)CCc1ccccc1	Prothrombin (F2, Homo sapiens, UniProt P00734)	enzyme activity, inhibitor	–	100 µM	15%
O=C(Nc1ccccc1)Nc1cccc(-c2ccccc2)c1	SRPK3	binding, KINOMEscan competitive binding	–	concentration not given	34%
C[Si]1(C[C@H](CN)CC(=O)O)CCCC1	KATP channel, human	binding, radioligand binding	–	70 µM, together with: [3H]glyburide	5%
S=C(NCC1(N2CCCCC2)CCCCC1)NC1CC2CCC1C2 (centres unmarked)	CXCR4	arrestin recruitment, DiscoverX arrestin	–	30 µM	74%
CN(Cc1ccc(/C=C/C(=O)NO)cc1)CC12CC3CC(CC(C3)C1)C2	human M4 receptor	antagonist radioligand binding	–	0.05 µM	0%
O=C1c2sc(-c3ccc(N4CCC(CO)CC4)nc3F)nc2CCN1c1cccnc1	HTR1B	ligand displacement, radioligand	–	1 µM	4%
COc1ncc2nc(C)n(Cc3ncc(S(N)(=O)=O)cc3F)c2c1-c1ccccc1	HTR1B	antagonist, cell-based	–	10 µM	-9.01%
Cc1ccc(CNC(=O)[C@H](CCc2ccccc2)NC(=O)[C@H](CC(=O)NCC(C)(C)C)NC(=O)CCc2cccc(F)c2)cc1	chymotrypsin	enzyme activity, inhibitor	–	100 µM	2%
COc1cc(-n2cc3cc(F)cc(C(N)=O)c3n2)cc(Cl)c1C1CC(O)(CCO)Cc2ccccc21 (centres unmarked)	Protein mono-ADP-ribosyltransferase TIPARP (TIPARP, Homo sapiens, UniProt Q7Z3E1)	enzyme activity, inhibitor	–	10 µM	0.4%
CC(=O)N[C@H](C(=O)N[C@@H](CO)C(=O)N[C@@H](Cc1ccccc1)C(=O)N[C@H]1CCCCNC(=N)Nc2ccc(cc2)CCNC(=N)NCCCC[C@@H](C(=O)N2CCC[C@H]2C(N)=O)NC(=O)[C@H](CC(C)C)NC(=O)[C@H](CC(C)C)NC(=O)[C@H](C)NC(=O)[C@H](Cc2c[nH]c3ccccc23)NC(=O)[C@H](Cc2ccc(O)cc2)NC(=O)[C@H](CCC(=O)O)NC1=O)[C@@H](C)O	MDM4	protein-protein interaction, inhibitor, TR-FRET	–	0.1 µM	92%
Cc1ccc(-c2nn(-c3ccc(S(C)(=O)=O)cc3)cc2/C=N/N=C2/NC(=O)CS2)cc1	Epidermal growth factor receptor (EGFR, Homo sapiens, UniProt P00533)	kinase activity, inhibitor	–	1 µM	70.5%
O=C(O)CCNC(=S)NCCCC[C@H](NS(=O)(=O)c1cccc(F)c1)C(=O)N[C@@H](Cc1c[nH]c2ccccc12)C(=O)NC1CCC1	SIRT3	enzyme activity, inhibitor	–	10 µM	2%
CC(=O)N[C@@H](CCC(=O)O)C(=O)N[C@@H](Cc1ccccc1)C(=O)N[C@@H](Cc1c[nH]c2ccccc12)C(=O)N[C@@H](CO)C(=O)N[C@@H](Cc1c[nH]c2ccccc12)C(=O)N[C@@H](Cc1ccc(O)cc1)C(=O)N[C@@H](Cc1ccc(O)cc1)C(N)=O	Programmed cell death 1 ligand 1, with PD-1 (CD274, Homo sapiens, UniProt Q9NZQ7)	PD-1/PD-L1 binding, ELISA	–	10 µM	17.6 ± 4.1%
COc1ccc(C[C@H](NC(=O)Cc2cccc(Oc3ccccc3)c2)C(=O)N[C@@H](Cc2c[nH]c3ccccc23)C(=O)NCc2ccc(C)cc2)cc1OC	trypsin	enzyme activity, inhibitor	–	100 µM	-1%

Compound	target	assay	test system	setting	inhibition
COc1ccc(C(=O)Nc2c(-c3cccs3)nc3ccccn23)cc1	HTR1B	ligand displacement, radioligand	–	10 µM	< 50%
COc1cc2c(cc1OC)[C@@H]1Cc3ccc(OC)c(OC)c3CN1CC2	Hematopoietic prostaglandin D synthase (HPGDS, Homo sapiens, UniProt O60760)	enzyme activity, inhibitor, fluorescence polarisation	–	100 µM	42.8%
C[Si](C)(C)C[C@H](CN)CC(=O)O	KATP channel, human	binding, radioligand binding	–	250 µM, together with: [3H]glyburide	4%
Cc1ccc(N(O)/N=N/c2ccc(S(=O)(=O)Nc3nccs3)cc2)cc1	AMY2	enzyme activity, inhibitor	–	240 µg/mL	36.8%
CC(=O)C12NC(C)(C)CC1(C)C(=O)C1=C2c2c(c3c4n2C(C)(C)CC2=C4C4(CC(C)(C)NC(C)(C4)C2=O)CC3(C)C)C(=O)C(C)(C)N1 (single isomer, unassigned; (+))	Potassium voltage-gated channel subfamily KQT member 3 (KCNQ3, Homo sapiens, UniProt O43525)	ion current, inhibitor, patch clamp	HEK-293T	40 µM	3%
O=c1c(O)c(-c2ccc(O)cc2O)oc2c(Br)c(O)c(Br)c(O)c12	AMY2	enzyme activity, inhibitor	–	50 µM, together with: CNP-G3 substrate	98.7 ± 1.72%
C#CC(=O)Nc1ccc2nc(NCCCCCN(C)C)nc(NCCCCCCN(C)C)c2c1	SETDB1 triple Tudor domain	–	–	33.33 µM	71.7%
O=C1CO[C@H](CNC(=O)C2(c3ccc(Cl)cc3)CC2)CN1C1Cc2ccccc2C1	CXCR4	β-arrestin recruitment, antagonist	–	1 µM	2%
N#Cc1ccc(NC(=O)Nc2ccccc2O)cc1	SRPK3	enzyme activity, inhibitor, FRET	–	10 µM	74.2%
C[C@H](NC(=O)[C@H](CC(=O)NCC(C)(C)C)NC(=O)C(=O)c1c[nH]c2ccccc12)C(=O)NCc1ccc(F)cc1F	trypsin	enzyme activity, inhibitor	–	100 µM	15%
CC(C)C[C@H]1CNC(=O)N2C[C@H](C[C@H]2C(N)=O)NC(=O)CCNC(=N)NCCCCNC(=N)NCCCC[C@H](NC(=O)[C@H](Cc2ccccc2)NC(=O)[C@H](CO)NC(=O)[C@@H](N)[C@@H](C)O)C(=O)N[C@@H](CCC(=O)O)C(=O)N[C@@H](Cc2ccc(O)cc2)C(=O)N[C@@H](Cc2c[nH]c3ccccc23)C(=O)N[C@@H](C)C(=O)N[C@@H](CC(C)C)CNC(=O)N1	MDM4	protein-protein interaction, inhibitor, TR-FRET	–	0.1 µM	23%
CN(C)C/C=C/C(=O)Nc1ccc2nc(NCCCCCN(C)C)nc(NCCCCCCN(C)C)c2c1	EHMT2	enzyme activity, inhibitor, radiometric	–	10 µM	63%
CCOC(=O)C12CC1C(n1cnc3c(NC)nc(C#Cc4ccc(Br)s4)nc31)C(O)C2O (centres unmarked)	Sodium-dependent dopamine transporter (SLC6A3, Homo sapiens, UniProt Q01959)	ligand displacement, radioligand	–	10 µM	-480%
Cc1ccnc(OC[C@H]2CN(CCN3CCc4ccccc43)CCO2)c1	HTR1B	radioligand binding	–	concentration not given, together with: [3H]5-CT	-1.1%
CN(C)CCCCCCNc1nc(NCCCCCN(C)C)nc2ccc(NC(=O)CCl)cc12	SETDB1 triple Tudor domain	–	–	100 µM	114%
CCCCCCCCCCCCNC(=S)NCCCC[C@H](NC(=O)OCc1ccccc1)C(=O)N[C@@H](CC(C)C)C(=O)N[C@@H](CCCNC(=N)N)C(N)=O	SIRT3	enzyme activity, inhibitor	–	10 µM	63%
Cc1ccc(CNC(=O)[C@H](CCc2ccccc2)NC(=O)[C@H](CCc2ccccc2)NC(=O)Cc2cccc(Oc3ccccc3)c2)cc1	chymotrypsin	enzyme activity, inhibitor	–	100 µM	-3%
C/C=C/C(=O)Nc1ccc2nc(NCCCCCN(C)C)nc(NCCCCCCN(C)C)c2c1	EHMT2	enzyme activity, inhibitor, radiometric	–	50 µM	55%
CCCCCCCCCCCCNC(=S)NCCCC[C@H](NC(C)=O)C(=O)N[C@H](C)C(=O)N[C@@H](CCCNC(=N)N)C(N)=O	SIRT3	enzyme activity, inhibitor	–	10 µM	21%
Cc1ccc(CNC(=O)C(CCc2ccccc2)NC(=O)C(NC(=O)Cc2cccc(Oc3ccccc3)c2)C(C)O)cc1 (centres unmarked)	chymotrypsin	enzyme activity, inhibitor	–	100 µM	1%
N#Cc1ccc(NC(=O)Nc2cccc(O)c2)cc1	SRPK3	binding, KINOMEscan competitive binding	–	concentration not given	72%
CCCCCCCCCCCCNC(=S)NCCCC[C@H](NC(=O)OCc1ccccc1)C(=O)N[C@H](C)C(=O)N[C@@H](CCCNC(=N)N)C(N)=O	SIRT3	enzyme activity, inhibitor	–	10 µM	11%

A few entries again:
Compound	target	assay	test system	setting	inhibition
COc1ccc(C(=O)Nc2c(-c3cccs3)nc3ccccn23)cc1	HTR1B	ligand displacement, radioligand	–	10 µM	< 50%
COc1cc2c(cc1OC)[C@@H]1Cc3ccc(OC)c(OC)c3CN1CC2	Hematopoietic prostaglandin D synthase (HPGDS, Homo sapiens, UniProt O60760)	enzyme activity, inhibitor, fluorescence polarisation	–	100 µM	42.8%
C[Si](C)(C)C[C@H](CN)CC(=O)O	KATP channel, human	binding, radioligand binding	–	250 µM, together with: [3H]glyburide	4%
Cc1ccc(N(O)/N=N/c2ccc(S(=O)(=O)Nc3nccs3)cc2)cc1	AMY2	enzyme activity, inhibitor	–	240 µg/mL	36.8%
CC(=O)C12NC(C)(C)CC1(C)C(=O)C1=C2c2c(c3c4n2C(C)(C)CC2=C4C4(CC(C)(C)NC(C)(C4)C2=O)CC3(C)C)C(=O)C(C)(C)N1 (single isomer, unassigned; (+))	Potassium voltage-gated channel subfamily KQT member 3 (KCNQ3, Homo sapiens, UniProt O43525)	ion current, inhibitor, patch clamp	HEK-293T	40 µM	3%
O=c1c(O)c(-c2ccc(O)cc2O)oc2c(Br)c(O)c(Br)c(O)c12	AMY2	enzyme activity, inhibitor	–	50 µM, together with: CNP-G3 substrate	98.7 ± 1.72%
C#CC(=O)Nc1ccc2nc(NCCCCCN(C)C)nc(NCCCCCCN(C)C)c2c1	SETDB1 triple Tudor domain	–	–	33.33 µM	71.7%
